Measured values collected from several papers.
Each numbered part is a random draw from the data of one study; scales do not carry over between parts.

Block 1
Target: Sal-like protein 4, full length isoform A (SALL4, Homo sapiens, UniProt Q9UJQ4, residues 1-1053)
Sequence of UniProt Q9UJQ4 (whole entry, looked up): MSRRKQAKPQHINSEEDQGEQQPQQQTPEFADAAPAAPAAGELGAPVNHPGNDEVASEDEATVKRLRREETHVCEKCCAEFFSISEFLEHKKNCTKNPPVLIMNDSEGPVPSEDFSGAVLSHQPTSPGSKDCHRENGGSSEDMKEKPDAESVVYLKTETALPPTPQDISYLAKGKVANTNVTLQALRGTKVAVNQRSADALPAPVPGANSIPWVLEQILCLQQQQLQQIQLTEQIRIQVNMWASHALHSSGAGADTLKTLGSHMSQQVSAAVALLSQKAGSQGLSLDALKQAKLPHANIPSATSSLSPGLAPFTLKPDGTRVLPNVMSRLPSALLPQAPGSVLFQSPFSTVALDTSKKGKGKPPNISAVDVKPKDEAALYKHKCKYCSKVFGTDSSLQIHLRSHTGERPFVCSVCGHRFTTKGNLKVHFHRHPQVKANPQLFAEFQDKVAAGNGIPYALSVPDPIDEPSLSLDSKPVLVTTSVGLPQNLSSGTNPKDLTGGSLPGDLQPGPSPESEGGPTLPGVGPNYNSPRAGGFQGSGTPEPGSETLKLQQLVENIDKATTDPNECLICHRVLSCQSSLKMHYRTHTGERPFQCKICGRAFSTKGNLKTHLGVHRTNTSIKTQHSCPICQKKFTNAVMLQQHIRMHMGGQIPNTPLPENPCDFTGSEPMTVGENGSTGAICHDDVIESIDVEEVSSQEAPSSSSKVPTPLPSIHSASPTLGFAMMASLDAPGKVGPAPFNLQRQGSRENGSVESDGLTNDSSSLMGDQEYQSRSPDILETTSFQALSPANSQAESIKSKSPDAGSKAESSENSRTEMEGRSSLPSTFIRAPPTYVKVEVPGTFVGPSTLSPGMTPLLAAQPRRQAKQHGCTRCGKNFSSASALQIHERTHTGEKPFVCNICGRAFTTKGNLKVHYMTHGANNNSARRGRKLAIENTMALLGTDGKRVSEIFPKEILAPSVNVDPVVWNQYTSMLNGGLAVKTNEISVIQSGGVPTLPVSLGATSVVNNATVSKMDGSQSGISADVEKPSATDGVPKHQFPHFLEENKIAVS
Method: universal PBM
Form: double-stranded DNA, one strand shown
Sample: in vitro
Tested at: 600 nM
Setting: 8-mer, flanks averaged, mean of replicates
Direction: higher = stronger binding
Oligonucleotide | E-score
ACGAGTCC | -0.135
CCACACGC | -0.276
ATACGGGG | -0.144
CTTACAAG | 0.107
ATTCTAAC | 0.241
AAGTATCA | 0.129
AGTTGCTC | -0.171
CATGAGAC | 0.118
CCCTTCTC | -0.206
TATCTCAA | 0.341
AGCTGATA | 0.222
TACGTGAA | 0.0988
CATCACGG | -0.0648
CACGTACG | -0.072
AAGCCTAG | -0.114
CAGGCGGC | -0.407
AACAAAAG | 0.234
TCTGTCCA | 0.0383
CTGCTGCA | -0.18
GCTGGTAA | 0.00841
CAAAATCG | 0.171
AAAAACAT | 0.294
AAATAGCT | 0.148
GCACATCC | 0.00275
ATGTAGTA | 0.253

Block 2
Target: Histone acetyltransferase KAT6A, winged helix 1, GST fusion (KAT6A, Homo sapiens, UniProt Q92794, residues 1-85)
Method: protein binding microarray
Form: double-stranded DNA, one strand shown
Sample: in vitro
Tested at: not given
Setting: 8-mer, flanks averaged, mean of 2 arrays, mostly near background
Baseline: not given
Direction: higher = stronger binding
Residues (chain): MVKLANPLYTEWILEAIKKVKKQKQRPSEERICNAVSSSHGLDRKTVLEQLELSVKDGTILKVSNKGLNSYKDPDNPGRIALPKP
Oligonucleotide | E-score
AGACTCCG | 0.0931
CCGGGCTC | 0.202
CGGGGTAA | 0.129
AAGTGTAG | -0.206
ATCTGACA | -0.206
ATTTAGTC | -0.0195
GCGAGTAC | 0.133
GGTCGTGA | -0.0168
ATTACGAA | -0.0837
ACACGTGG | -0.26
AATGGGAT | -0.133
CTGATCCC | -0.139
ATCCTCCG | 0.0221
AAGCCTGA | -0.0513
CGAGATGA | -0.0528
AAAATAGT | -0.13
CGGGTCGA | 0.0828
AGTGCAGC | -0.0344
AAATCAGA | -0.231
GCGAATCA | 0.065
CAGGTGCC | -0.00021
ACATGGCT | -0.112
CTCGACCC | 0.106
GAGAAGTA | -0.0427
CACCAATA | -0.233

Block 3
Target: PABPC1L2, full length, GST fusion (mouse, UniProt A0ABA7IW68)
Method: RNAcompete
Form: RNA
Sample: in vitro
Tested at: 20 nM
Setting: 7-mer, probes averaged, single round
Baseline: mean of 7-mers
Direction: higher = stronger binding
Residues (chain): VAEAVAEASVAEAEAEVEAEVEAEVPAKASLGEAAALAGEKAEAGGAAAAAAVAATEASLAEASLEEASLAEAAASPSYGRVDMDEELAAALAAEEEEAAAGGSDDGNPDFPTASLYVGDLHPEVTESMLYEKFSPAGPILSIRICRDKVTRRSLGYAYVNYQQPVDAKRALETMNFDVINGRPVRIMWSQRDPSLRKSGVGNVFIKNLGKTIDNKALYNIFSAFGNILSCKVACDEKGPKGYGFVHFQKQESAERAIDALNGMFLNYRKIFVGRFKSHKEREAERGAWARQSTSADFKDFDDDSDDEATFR
Oligonucleotide | 7-mer Z-score
UAAAAUU | 3.23
GUUCAAC | -0.24
UUCAUGC | -0.226
UUUAUUA | -0.0935
UGACGGC | -0.0138
UUACGCA | -0.191
GUCACAU | -0.128
CGCUUGU | -0.456
GGGCUUG | 0.0805
GCAGAGG | 0.124
GCCUAAG | -0.324
CUCAGCC | -0.269
UCCCUCC | -0.42
AGCCGAA | -0.0355
AGAGGCA | 0.216
CUAAUCA | -0.0699
GAUACCA | -0.0645
GACUAUA | -0.0754
ACUUUCG | -0.291
CGUCGCA | -0.371
UGCGUGA | -0.253
UUUAAGA | 0.151
GAUCCCU | -0.362
AUCCAGG | -0.213
AGAACAA | 0.412

Block 4
Target: RNA binding protein fox-1 homolog 2, RRM domain, GST-SBP tag (RBFOX2, Homo sapiens, UniProt O43251-10, residues 100-194)
Method: RNA Bind-n-Seq
Form: RNA
Sample: in vitro
Tested at: 365 nM
Setting: natural RNA segment, single round, ends assumed
Baseline: no-protein control
Direction: higher = stronger binding
Construct (chain): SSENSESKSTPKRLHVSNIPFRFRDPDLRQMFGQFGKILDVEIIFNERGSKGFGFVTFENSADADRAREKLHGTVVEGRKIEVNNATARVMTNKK
Oligonucleotide | RBNS enrichment (R)
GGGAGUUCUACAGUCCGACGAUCGGAGGUAGCAGGCACUGGCAUAGCACGGUAGUGGUUUGGGGAGGUUUCCGCAGGUCUGCUCCCCACCCCUGCCUCGGAAGAAUAAAGAGAAUGUAGUUCCCUACUCAGGCUGGAAUUCUCGGGUGCCAA | 0.336
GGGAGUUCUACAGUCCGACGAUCAUAAAUACUGGUGUAUCCCCUGACUUGUACCCAGAGUACAAGGUGACAGUGACACAUGUAACUUAGCAUAGGCAAAGGGUUCUACAACCAAAGAAGCCACUGUUUGGGGAUGGAAUUCUCGGGUGCCAA | 0.814
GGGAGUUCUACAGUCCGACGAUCGGGAGAAUUAGCUAGUAGCAAUGUGCCUUGAUGAAGAUUUCCUGCAGGCAGCAAAACACCAAAUCACAACGCUUUGCUUCUCGACAUCAUGGGCCAGGUCCUCAGUUUCUUGGAAUUCUCGGGUGCCAA | 0.31
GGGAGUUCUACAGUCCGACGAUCCAGCCCAAACUUUUAAGAUGACCCAAAGUCGUGAGAAUAGGAAAAAGGAAUCUGAUUAACAUUUAUGCAUUUUAUUUUCAGAAGGACUUUCAGUUAUCCAUAAAUCUAAGUGGAAUUCUCGGGUGCCAA | 0.87
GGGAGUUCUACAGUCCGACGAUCAAAGUGGAAACCGCUUCCCUUUUCUCCUCUGUGGCAGUUACAAUUUUGACUUCAGGCCUGAGAAAAACUUCAGGUUUCGAAACAUGACAUCUCUUCCUUUUCCAGAUCCCUGGAAUUCUCGGGUGCCAA | 0.38
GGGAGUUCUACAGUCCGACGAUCCAAUGCAUUGGUGCAUAGGAGUUACUAGGGCUACUUCUGGAAGCCAAAAUAGAAUAGCAUCUCCAUGUGCAUUAAAAACUUCGCCAGCACUGCCUUUUGCCAGCAUUCUAUGGAAUUCUCGGGUGCCAA | 0.475
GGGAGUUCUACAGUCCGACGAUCACAUUGCAUUUAGAAAGCUUUUGUUCUUGGAUAAAAAGUCAUACACUUUAAAAAAAAAAAAAACUUUUUCCAGGAAAAUAUAUUGAAAUCAUGCUGCUGAGCCUCUAUUUUGGAAUUCUCGGGUGCCAA | 0.566
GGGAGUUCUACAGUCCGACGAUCCAUGUAUCCUUGCUCUCCAGAGAUGGCACUAGCCUCAAUCCAGCUUCCAUCUUUGUAUACACCUGCAUGCAGGAAGACCUGGAUAUGGAUGAGCCCUGAGGAACACAGGGUGGAAUUCUCGGGUGCCAA | 1.92
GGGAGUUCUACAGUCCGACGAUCCUAGAAAAUGCUUUUAAUGUCUCAACUCUCUCUUUUCUGUGUCAUGUUUUGGUAGGAAAUCUUUAAGAUUGGCGGACGGAACAGGUAUUUUAGUGAGACACUUCUGAGUAUGGAAUUCUCGGGUGCCAA | 0.338
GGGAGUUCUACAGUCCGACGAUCACUCCGUAGAAAGCACUGGAUUUUGUGACAUGUAUAUUAAAAACAGGGCAUUUCAAAGUAAUUUUGCCAAAAUUGUCAUAACUGAAUUUUUGCUGUGUGGACUUUCUGAUUGGAAUUCUCGGGUGCCAA | 0.576
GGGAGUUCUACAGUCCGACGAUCACCCAAAAGCAACUGUAACUCAGAAAUUAAGUUACUCAGAAAUUAAGUAGCUCAGAAAUUAAGAAAGAAUGGUAUAAUGAACCCCCAUAUACCCUUCCUUCUGGAUUCACUGGAAUUCUCGGGUGCCAA | 0.291
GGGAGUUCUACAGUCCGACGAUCGUAAUUUUAAGGGGCCAAAGCUUUCCCUGAAGCAACCAAAGAUAUAUCCAAGUGCUUCCUCCAAGUCAACAUGUAUUUCCUCUCCCCAUUUUCAGGCCCUGUGGGGCUCCUGGAAUUCUCGGGUGCCAA | 0.729

Block 5
Target: Interferon regulatory factor 7, full length, phosphomimetic (IRF7, Homo sapiens, UniProt Q92985, residues 1-503, S471D/S472D/S475D/S476D/S477D/S483D/S484D/S487D)
Method: protein-binding microarray
Form: double-stranded DNA, one strand shown
Sample: in vitro
Tested at: 2200 nM top
Setting: 60-bp whole probe
Together with: salmon DNA 0.4 mg/ml
Baseline: random background probes
Direction: higher = stronger binding
All sequences stand within: GCCTAGCAC … GTCTTGATTCGCTTGACGCTGCTG
Residues (chain): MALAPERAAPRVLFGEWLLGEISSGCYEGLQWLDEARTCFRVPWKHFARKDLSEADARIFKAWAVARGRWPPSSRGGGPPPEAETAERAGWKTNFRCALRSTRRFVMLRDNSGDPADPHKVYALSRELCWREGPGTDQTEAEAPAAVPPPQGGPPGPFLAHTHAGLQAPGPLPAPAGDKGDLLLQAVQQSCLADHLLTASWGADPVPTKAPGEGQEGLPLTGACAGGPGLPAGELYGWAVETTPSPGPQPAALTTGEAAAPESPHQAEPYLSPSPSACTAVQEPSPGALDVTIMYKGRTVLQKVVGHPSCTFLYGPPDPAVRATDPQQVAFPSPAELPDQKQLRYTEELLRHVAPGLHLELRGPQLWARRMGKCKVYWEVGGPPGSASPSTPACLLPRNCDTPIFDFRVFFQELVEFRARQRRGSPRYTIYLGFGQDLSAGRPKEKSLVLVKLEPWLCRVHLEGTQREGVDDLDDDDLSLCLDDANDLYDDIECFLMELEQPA
Oligonucleotide | fitted relative affinity [z-score]
TCATATATCTTATCCTAACTGTGCTAG | 1.55
TGCTGTGTGCATCTATCTTAGTGCTAG | 0.226
GAGGAACTGGGGACTGGAGACGTGCTA | -0.706
GACAGTATCGGGACTGGGGACGTGCTA | -0.27
TTAGGGCTGGGGACTGGGTTAGTGCTA | -1.11
TTAGGTTTCCGTTCCGGTTAGTGCTAG | 4.43
GTCGGTATCCTTATCCTGACGTGCTAG | 1.62
GACGGACTTGACTATCGGGACGTGCTA | -0.314
GTCCCTATCTCCTCACAGACCGTGCTA | 2.24
GCCGATTTCAGTTCCGAGACGTGCTAG | 2.53
TAAGGTCTCGGTCTCGGTTAGTGCTAG | 0.62
TTAGCTATCAGTTTCGATTAGTGCTAG | 5.62
GACGGTATCCTTGTCCTGACGTGCTAG | 0.871
TTAGGTCTCCTACCGCTTTAGTGCTAG | 0.537
GACGGTATCGGTTGCGGGACGTGCTAG | 0.276
TCATTTTCATGCTCTTATACTGTGCTA | 3.56
GACGGTATCGATCTCGGGACGTGCTAG | 0.37
TCAGGTTTTCTAATGTTACTGTGCTAG | 1.01
TCAATTTTCACGGTGGGACTGTGCTAG | 0.791
TTGGGACTGCTTCTCCTTTAGTGCTAG | 0.765
TTAGGTTTCCTTCTCCTTAAGTGCTAG | 2.38
GACGGACTGCTACTTCTGACGTGCTAG | 0.293
GAAGATATCGGGTATCGAGACGTGCTA | -0.018
AACGGACTGCTTATCCTGACGTGCTAG | 0.187
ATAGGTATCGGGTTTCGGTTAGTGCTA | 4.2

Excerpt of the above (block 1):
Oligonucleotide | E-score
CTTACAAG | 0.107
ATTCTAAC | 0.241
AAGTATCA | 0.129
AGTTGCTC | -0.171
CATGAGAC | 0.118
CCCTTCTC | -0.206
TATCTCAA | 0.341
AGCTGATA | 0.222
TACGTGAA | 0.0988
CATCACGG | -0.0648
CACGTACG | -0.072
AAGCCTAG | -0.114
CAGGCGGC | -0.407
AACAAAAG | 0.234
TCTGTCCA | 0.0383
CTGCTGCA | -0.18
GCTGGTAA | 0.00841
CAAAATCG | 0.171
